# Values quoted from earlier work, collected from citations in different studies.
# Values joined by “and” are separate records of one study, mostly repeats; a detail may differ.
# Organism: Plasmodium falciparum
SMILES,test,system,conditions,IC50
N/C(CC(O)c1cc2c(F)cc(F)cc2c2cc(C(F)(F)F)ccc12)=N\N=C\c1ccc(F)cc1 (stereo not drawn),,Dd2,asexual blood stages,3 nM and 2.9 nM
CCN(CC)CCCC(C)Nc1ccnc2cc(Cl)ccc12 (stereo not drawn),parasite growth,3D7,,80 nM
CN(CCc1ccccc1)CCC(O)(P(=O)(O)O)P(=O)(O)O,parasite growth,,,33600 nM
CCCCCCCCCC[N+](C)(C)C,growth,,,700 nM
CC1=C2Cc3cc(ccc3O)C(=O)O[C@H](C(C)(C)Br)CC[C@](C)(O)[C@H](Br)CC[C@]2(C)[C@@H](Br)CC1,,chloroquine-sensitive,,< 1000 nM
CCCCCCCCCCCC[N+](C)(C)C,growth,,,500 nM
O=C1C(O)=C([C@H]2CC[C@H](c3ccc(Cl)cc3)CC2)C(=O)c2ccccc21,,3D7,"72 h, whole cell",1 nM
Cc1ccc(Nc2nc(-c3ccccn3)cs2)cc1,,"3D7, blood stages",,350 to 400 nM
O=C(Nc1ccccc1O)c1ccc(S(=O)(=O)c2ccc(Cl)cc2)cc1,,3D7,"72 h, whole cell",1340 nM
O=CN(O)CCCP(=O)(O)O,,fresh clinical Cameroonian isolates,,301 nM
Cc1cccc(-c2nn(-c3ccccc3)cc2C(=O)Nc2nnc(C)o2)c1,,3D7,"72 h, whole cell",1160 nM
S=C(NCCCNCCCCCCNCCCNC(=S)NCc1ccccc1)NCc1ccccc1,parasite growth,3D7,intraerythrocytic stage,106 nM

# Repeated from above:
SMILES,test,system,conditions,IC50
CCN(CC)CCCC(C)Nc1ccnc2cc(Cl)ccc12 (stereo not drawn),parasite growth,3D7,,80 nM
S=C(NCCCNCCCCCCNCCCNC(=S)NCc1ccccc1)NCc1ccccc1,parasite growth,3D7,intraerythrocytic stage,106 nM
